Measured values from different studies.
A part holds a random share of what one study measured. Substitutions count along the parent as printed.

Sample 1
Target: Sal-like protein 4, full length isoform A (SALL4, Homo sapiens, UniProt Q9UJQ4, residues 1-1053)
UniProt Q9UJQ4, sequence (whole entry, looked up): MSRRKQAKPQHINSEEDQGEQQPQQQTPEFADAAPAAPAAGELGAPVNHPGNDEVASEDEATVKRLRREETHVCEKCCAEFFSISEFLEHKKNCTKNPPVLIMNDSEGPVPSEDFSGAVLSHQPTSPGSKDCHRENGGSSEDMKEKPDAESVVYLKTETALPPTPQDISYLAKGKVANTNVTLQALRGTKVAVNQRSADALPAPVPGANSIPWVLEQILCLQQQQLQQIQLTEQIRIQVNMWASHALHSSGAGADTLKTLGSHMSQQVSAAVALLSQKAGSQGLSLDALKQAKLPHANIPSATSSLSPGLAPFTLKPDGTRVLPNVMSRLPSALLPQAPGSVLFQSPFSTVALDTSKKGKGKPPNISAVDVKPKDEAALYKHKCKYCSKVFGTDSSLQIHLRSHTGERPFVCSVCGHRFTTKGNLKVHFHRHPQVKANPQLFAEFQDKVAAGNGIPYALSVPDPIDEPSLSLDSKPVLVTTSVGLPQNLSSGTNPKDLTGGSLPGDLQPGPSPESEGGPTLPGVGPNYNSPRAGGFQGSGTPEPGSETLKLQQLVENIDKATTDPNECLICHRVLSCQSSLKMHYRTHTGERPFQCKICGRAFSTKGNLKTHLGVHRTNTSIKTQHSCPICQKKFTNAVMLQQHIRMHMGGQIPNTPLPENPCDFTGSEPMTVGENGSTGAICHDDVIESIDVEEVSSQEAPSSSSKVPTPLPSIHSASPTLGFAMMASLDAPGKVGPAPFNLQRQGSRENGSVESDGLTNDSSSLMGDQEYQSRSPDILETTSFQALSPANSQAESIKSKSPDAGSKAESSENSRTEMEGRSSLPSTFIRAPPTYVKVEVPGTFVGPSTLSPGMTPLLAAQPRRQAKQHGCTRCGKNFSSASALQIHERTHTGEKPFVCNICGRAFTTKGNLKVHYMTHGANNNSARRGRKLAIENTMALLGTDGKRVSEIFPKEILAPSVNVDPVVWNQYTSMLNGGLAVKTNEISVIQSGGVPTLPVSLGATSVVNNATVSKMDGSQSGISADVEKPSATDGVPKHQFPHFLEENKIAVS
Method: universal PBM
Form: double-stranded DNA, one strand shown
Sample: in vitro
Concentration: 600 nM
Notes: 8-mer, flanks averaged, mean of replicates
Direction: higher = stronger binding
Strand | E-score
ATAGTAAT | 0.34
GATGTTTA | 0.161
GTAGGTAA | 0.116
TAGGCAAA | 0.0956
ACGTACGG | -0.203
CGATGTAC | 0.101
CTTTCCTC | -0.0157
CTAGCTAG | -0.0493
CGTCGATC | -0.0318
GTATTGAA | 0.263
GGTGTAAA | 0.0121
ACCGCTAA | 0.151
CCTGGGCG | -0.33
CTGTATGA | 0.221
TGCCTTAA | 0.00281
AACGCATG | -0.0152
AGATACGG | 0.0118
AGTGTCAG | -0.0744
ATAATCCC | 0.131
GTGCAAGA | -0.00159
AGTATGCC | -0.0607
CTTATGAA | 0.273
CTGCCAAC | -0.0704
CTTGCTAA | 0.063

Sample 2
Target: RNA binding protein fox-1 homolog 2, RRM domain, GST-SBP tag (RBFOX2, Homo sapiens, UniProt O43251-10, residues 100-194)
Method: RNA Bind-n-Seq
Form: RNA
Sample: in vitro
Concentration: 365 nM
Notes: natural RNA segment, single round, ends assumed
Baseline: no-protein control
Direction: higher = stronger binding
Constant ends, left off below: GGGAGUUCUACAGUCCGACGAUC … UGGAAUUCUCGGGUGCCAA
Construct (chain): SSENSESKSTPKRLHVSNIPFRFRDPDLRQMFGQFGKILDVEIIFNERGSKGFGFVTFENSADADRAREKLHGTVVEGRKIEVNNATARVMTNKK
Strand | RBNS enrichment (R)
GGAUCAGCCAAGCUUCGUUCCAUCUUUUCCUAAAGGUCAGAGCUGCAGCCUAGGGGGCACUGCCCUACAGAAAAGGUCUGCCUGAGAGGCCUGAGGAGCCCAGAGCACUU | 0.26
AAAAAAAAGAAACUGGGGUAGGUUGUAGGAGGGGGGCCCAGAAAGACACCCCUGUACCUCUUCUCCAGGCCCAGCCUGCCACUGGGGAUGGGAAGAGGGGUUCUGGACUG | 0.614
GCAUUUUACUGUACAUCACAAGGCCAUUUUUAUAUACGGACACUUUUAAUAAGCUAUUUCAAUUUGUUUGUUAUAUUAAGUUGACUUUAUCAAAUACACAAAGAUUUUUU | 0.956
AGGACCACGUUUAUAGCUUCAGGACCUGGCUACGUAAUUAUACUUAAAAUAUCCACUGGACACUGUGAAAUACACUAACAGGAUGGCUGGGUAGAGCAAUCUGGGCACUU | 0.37
AAUUUAAUGCUUCUUUUCCUUAAAAAAUAAAAAAAAAAAUCAAAAAAACCCACUAAAGUGAAGCAUUUCUUGAUUCCCUUUUCCAUGCUGGUGCCUAGCCCGGGUGAGUG | 0.427
AACAACACCUCAUUCUUAACUGUGUGGCCAAUGUCAGGUAUACCAAAGCAUUCCUCUGACUGCUUUUUGGGGCAGUGUUGACAGGAGUGAGGCAUUUUGGAAACUCCAAG | 0.222
CUUCAAGCAUGACUGUUAAUGGCUCCUCUGUGACAAAACACAAGUUGGACCAAGGAGAAAGCCCUUUGGAGAAACUGGACCCUAGUUCAGUUUAGAUCUCAAAUAUAGGC | 0.441
UCAUCCAUACUGGGAAUUGUCUUGUUUUGAUACUGUGUUUUUCUGUGUUGCUUAAACUUCAAGAAUUACAAAUGUGGACCUGGCACAUGCUGUGGUUUAACAUUGACACU | 0.637
AUAAGACCCGAAACAACCUGCAAGAAACAGAACUGUUGAGUAUUGGUUGGACUGCUCAUGGAUUUGGUAGCUGUUUUAAAAAGGUAGCUGUGAUACAAGCCCCAGGACAC | 0.567
AAUUUCAGAAUGGUUUCUUAAAUUUCCUUGGGAACCGUUUCCACAUAUCAGUUAUAGACAAAGGCCAUGGGACUAUGCUAAACCAAUAAAACCUUAUUAGCAAAUCUUUA | 0.393
AAGCAAACCUAGAGAAUCCCAUGCGACUUGGGUAGCCUUCAGAGACCAGGCGCUUGAUUGGGUGUUCAGUAUGGAGUAGAUGAAGUGCGUAUUUAUUUAAGGCGAAAGCU | 0.725
CUCACUCCUGAGAGAUUUCUGCCUUCUGUGAGUUGGGUUAAAGCUCUGGAAUUAUCUACUAUCCCAAUCCACUACCCUCACCUGGCAAUAUUUGUCUGUUUUUGUUUGUU | 0.895

Sample 3
Target: TAR DNA-binding protein 43, full length, His tag (TARDBP, Homo sapiens, UniProt Q13148, residues 1-414)
Method: RNA Bind-n-Seq
Form: RNA
Sample: in vitro
Concentration: 20 nM
Notes: 6-mer, flanks averaged, single round
With: 150 mM LiCl
Baseline: input library
Direction: higher = stronger binding
Strand | 6-mer enrichment (R)
AAGACA | 0.797
GGGCUA | 1.01
GUUUUG | 1.5
AUGUCU | 0.967
GGCUAU | 0.946
UUCCAG | 0.924
CAUUCC | 0.872
GAAAGG | 1.03
AAUGCG | 1.02
GAGAUA | 0.931
GCCCCC | 1.41
ACCGUA | 0.846
GCCGGA | 0.975
AGUCAG | 0.877
CAGCUC | 0.854
AGUAGU | 1.01
GCACUC | 0.874
GUUAAA | 0.953
AUAUCU | 0.871
AGAGAC | 0.881
ACAUCG | 0.798
CUGUAA | 0.904
UCCAGA | 0.846
UAAUUG | 1.02
UUAUAU | 1.11

Sample 4
Target: ABI1, truncated, D143A, DHFR fusion (Arabidopsis thaliana)
Method: DHFR PCA, deep sequencing
Sample: yeast
Notes: methotrexate growth selection, single substitutions
With: (+)-ABA 17 µM
Baseline: wild-type fitted maximum
Direction: higher = stronger binding
Starting sequence: PYL1, truncated, DHFR fusion (Arabidopsis thaliana); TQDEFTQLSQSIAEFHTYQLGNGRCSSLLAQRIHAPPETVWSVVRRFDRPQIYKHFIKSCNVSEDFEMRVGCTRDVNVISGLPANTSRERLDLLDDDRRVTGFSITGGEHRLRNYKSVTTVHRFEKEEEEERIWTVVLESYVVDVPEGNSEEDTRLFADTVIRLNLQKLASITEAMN
Change | relative binding score [%]
A30E | 70.1
A35D | -7.82
L29T | 40.7
R49H | 72.7
Q167D | 62.6
P146V | 22.8
E174M | 55.3
C25V | 89.4
S42I | 21.3
T17A | 52.5
V121D | -6.9
L166T | -16.4
I12M | 56.4
Q31M | 52.7
V62R | 11.7
L82M | 72.4

Sample 5
Target: Interferon regulatory factor 7, full length, phosphomimetic (IRF7, Homo sapiens, UniProt Q92985, residues 1-503, S471D/S472D/S475D/S476D/S477D/S483D/S484D/S487D)
Method: protein-binding microarray
Form: double-stranded DNA, one strand shown
Sample: in vitro
Concentration: 2200 nM top
Notes: 60-bp whole probe
With: salmon DNA 0.4 mg/ml
Baseline: random background probes
Direction: higher = stronger binding
Constant ends, left off below: GCCTAGCAC … GTCTTGATTCGCTTGACGCTGCTG
Residues (chain): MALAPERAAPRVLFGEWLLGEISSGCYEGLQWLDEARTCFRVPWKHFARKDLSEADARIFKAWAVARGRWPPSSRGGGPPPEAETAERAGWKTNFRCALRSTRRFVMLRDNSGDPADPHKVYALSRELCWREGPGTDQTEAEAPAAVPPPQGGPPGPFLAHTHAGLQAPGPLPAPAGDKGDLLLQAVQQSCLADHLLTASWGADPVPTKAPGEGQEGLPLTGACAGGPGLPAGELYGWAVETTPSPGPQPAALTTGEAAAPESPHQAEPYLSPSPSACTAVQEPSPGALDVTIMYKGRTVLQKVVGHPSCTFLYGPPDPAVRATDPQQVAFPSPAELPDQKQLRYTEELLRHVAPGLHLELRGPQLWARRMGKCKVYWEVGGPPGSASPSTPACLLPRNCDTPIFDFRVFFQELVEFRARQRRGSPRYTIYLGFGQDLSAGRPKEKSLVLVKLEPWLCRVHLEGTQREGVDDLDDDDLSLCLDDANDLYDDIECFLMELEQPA
Strand | fitted relative affinity [z-score]
GACGAACTGAGTCACGAGACGTGCTAG | 0.0166
GACGGTTTCGGGTGTCGGGACGTGCTA | 5.08
CAGGGAATTCACCTGCTGACGTGCTAG | -0.348
TTAGATTTCGGGTATCCATTAGTGCTA | 3.12
TTAGAACTGGGGTATCGACTAGTGCTA | 0.0217
TTAGGTATCGTGTATCGGTTAGTGCTA | 0.621
TTAGATCTCAGTCTTGATTAGTGCTAG | 0.0193
TTAGGACTGGGGTCTCGGTTAGTGCTA | -0.581
GTAGGCTTCTATGTAGTTGAGTGCTAG | 0.0337
TTAGGTATCGGGACTGGCTTAGTGCTA | -0.228
TTAGGCCTGGGACTGGGTTAGTGCTAG | -1.24
TTAGGTTTCGACTAGCGGTTAGTGCTA | 3.22
GACGGTCTCCTTATCGTGACGTGCTAG | 0.667
GACGGTATCGACTATCGGGACGTGCTA | -0.159
TGCATTTTTTTTTTCTACTTGTGCTAG | 2.73
TTAGGTTTCCTTTCTCTTTAGTGCTAG | 5.06
GAAGGTCTCCTTATCCTGACGTGCTAG | 0.682
CACGAACTGAGTATCGAGACGTGCTAG | 0.254
GACGGTATCCTTATTCTGACGTGCTAG | 0.858
CTTTTTTTCAAGAAACAGTTCGTGCTA | 0.467
GACGGGCTCCTTCTCCTGACGTGCTAG | -0.202
TTCGGTATCGACTATCGGTTAGTGCTA | 1.05
GACGGTTCCGGTTTCGCGACGTGCTAG | 4.22
GACGATATCAGACTGGAGACGTGCTAG | -0.0908
TCAACTCTTCCTTTACTACTGTGCTAG | 1.82

Sample 6
Target: Histone acetyltransferase KAT6A, winged helix 2, GST fusion (KAT6A, Homo sapiens, UniProt Q92794, residues 85-181)
Method: protein binding microarray
Form: double-stranded DNA, one strand shown
Sample: in vitro
Concentration: not given
Notes: 8-mer, flanks averaged, mean of 2 arrays, mostly near background
Baseline: not given
Direction: higher = stronger binding
Residues (chain): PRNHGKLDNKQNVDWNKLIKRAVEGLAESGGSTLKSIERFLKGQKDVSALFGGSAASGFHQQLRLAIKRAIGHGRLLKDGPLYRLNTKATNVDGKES
Strand | E-score
CGCTTCCG | 0.109
CGAAATAG | 0.0492
AAACAAAA | -0.0874
AGATAAAC | 0.113
GAGTCCAA | -0.089
ACTATACG | -0.0567
AATTTTCA | -0.0663
ATACAAAC | 0.119
AGCACTGG | -0.0645
ACGATGTA | -0.114
ACGTGAAC | -0.323
GGAGCCTA | 0.154
CAGTGTGA | -0.0101
ACTTAACC | 0.00713
CAGTCTAA | -0.125
AAGGTCTC | -0.0557
GTTGGAAA | 0.0217
GTCCTGTA | -0.251
GACTGGCA | -0.123
TGTCTAAA | 0.132
ATACCCCC | -0.0202
GCCTCGAC | 0.0159
GTCTACAC | -0.0441
AGCGACGA | 0.0692
GAAGGGGC | -0.0301
